Measurements of several laboratories.
A part holds a random share of what one study measured.

Series 1 — method: RNA Bind-n-Seq; molecule type: RNA; sample: in vitro; tested at: 200 nM; notes: whole 134-nt RNA, ends assumed; together with: 150 mM LiCl; relative to: input library; direction: higher = stronger binding; quantity: log2 enrichment; each molecule: 7-deaza-guanosine replaces G
Target: Fragile X messenger ribonucleoprotein 1, C-terminal low-complexity region (Fmr1, Mus musculus, UniProt P35922)
Constant ends, left off below: GGGAGUUCUACAGUCCGACGAUC … UGGAAUUCUCGGGUGUCAAGG
UAACUUUAGAGGAGGAUCUGAUGGAUAUGGCAGUGGACGUGGAUUUGGGGAUGGCUAUAAUGGGUAUGGAGGAGGACCUGGAGUUGGCAA: 0.657
AAGUCCUGUGCUACACAUCGUAUGUACCGAAUCGGUUUUUUUGGAAAGGUUUUUGGAAAGUAUUAUGUUACGCCGUUCGGAUCUGCACUU: -2.81
CUCAAGUCCUGUGCUACACAUCGUAUGUACCGAAUCGGGCCGGGCCGGGCCGGGAAAGUAUUAUGUUACGCCGUUCGGAUCUGCACUUCC: 0.852
UGGCCCAGGUGGCAUGCGGGGAGGAAGAGGUGGCCUCAUGGAUCGUGGUGGUCCCGGUGGAAUGUUCAGAGGUGGCCGUGGUGGAGACAG: -0.235
ACCAUUCAGGUGGGCAUCUUUGGGAAGUGGGGCAAGGGGGGGAUAGGGAGGGGGGUAACACUUUGGGAACAGGUGGUCCCAGGUCGUUUC: 1.32
AAGUCCUGUGCUACACAUCGUAUGUACCGAAUCGGGAAAAAAAGGGUUUGGGUGGGAAAGUAUUAUGUUACGCCGUUCGGAUCUGCACUU: -1.87
AAGUCCUGUGCUACACAUCGUAUGUACCGAAUCGGGGUUUUGGUUUUGGGUUUUGGGAAAGUAUUAUGUUACGCCGUUCGGAUCUGCACU: -1.4

Series 2 — method: protein binding microarray; molecule type: double-stranded DNA, one strand shown; sample: in vitro; tested at: not given; relative to: not given; direction: higher = stronger binding; quantity: E-score
Target: Histone acetyltransferase KAT6A, winged helix 2, GST fusion (KAT6A, Homo sapiens, UniProt Q92794, residues 85-181)
Notes: 8-mer, flanks averaged, mean of 2 arrays, mostly near background
Residues (chain): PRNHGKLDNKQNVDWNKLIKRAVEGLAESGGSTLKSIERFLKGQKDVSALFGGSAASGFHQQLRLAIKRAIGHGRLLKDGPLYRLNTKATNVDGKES
AGCATAAA: -0.0466
AGTTCGCG: 0.152
CCTTACCG: 0.0223
CTGAAGCC: -0.0284
GTGCTTAA: 0.0647
AATCTTCG: 0.133
ATTACTAG: -0.183
ACCTTCGT: 0.0023
GTCAGATA: -0.0739
CTATTCAG: 0.0513
AATCCAAC: -0.00814
TCTATAAA: -0.00277

Series 3 — method: Sort-seq; measured: YFP reporter; sample: E. coli; notes: PhoQ-PhoP variant library; together with: 10 µM Mg2+; relative to: high Mg2+ state; direction: higher = stronger signaling; quantity: fold induction
Substance: PhoQ, residues 284 288 289 292 302 303 SSTLSG
PhoP, residues 12 14 15 18 19 TPWTL (Escherichia coli, UniProt P23836): 10.8
PhoP, residues 12 14 15 18 19 LHHYF (Escherichia coli, UniProt P23836): 16.1
PhoP, residues 12 14 15 18 19 VGHWL (Escherichia coli, UniProt P23836): 1.15
PhoP, residues 12 14 15 18 19 NFFVT (Escherichia coli, UniProt P23836): 13.4

Series 4 — method: protein-binding microarray; molecule type: double-stranded DNA, one strand shown; sample: in vitro; tested at: not given; direction: higher = stronger binding; quantity: E-score
Target: Myc proto-oncogene protein, bHLH-zipper, MAX partner unstated (MYC, Homo sapiens, UniProt P01106, residues 368-449)
UniProt P01106, sequence (368-449, looked up): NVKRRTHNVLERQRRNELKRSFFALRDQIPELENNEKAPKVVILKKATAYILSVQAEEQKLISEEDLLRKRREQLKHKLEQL
Notes: k-mer, scored over probes, only values ≥0.25
GCGTGTAA: 0.316
GCCCCGCC: 0.358
GGCACACC: 0.254
CATGGAAA: 0.257
ATGTGTGA: 0.282
CGTGCCAG: 0.279
ATGTGTTC: 0.272
AGGCATGG: 0.385
CGTGTGTA: 0.367
ATGCTCCA: 0.281

Excerpt of the above (series 2):
GTGCTTAA: 0.0647
AATCCAAC: -0.00814
TCTATAAA: -0.00277
